Experimental data pooled from the literature.
Every numbered part comes from another study and shows a few of its results, in no order. Positions count from the first letter of the parent shown.

Study 1 — technique: protein binding microarray; molecule type: double-stranded DNA, one strand shown; medium: in vitro; concentration: not given; relative to: not given; reading: higher = stronger binding
Target: Histone acetyltransferase KAT6A, winged helix 1, GST fusion (KAT6A, Homo sapiens, UniProt Q92794, residues 1-85)
Notes: 8-mer, flanks averaged, mean of 2 arrays, mostly near background
Residues (chain): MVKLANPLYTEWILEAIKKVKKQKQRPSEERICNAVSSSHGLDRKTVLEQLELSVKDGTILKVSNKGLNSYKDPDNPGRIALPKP
Oligonucleotide	E-score
AGAGTGGC	-0.125
AAGGTCTA	-0.166
ACGCTGAT	0.262
ACATTCGG	0.0139
ACTGAAGG	-0.0528
AGACCGTA	0.129
GACGGTGC	0.277
ACATCCTC	-0.0858
ACAAAGTC	-0.189
GCAACAGA	-0.0478
GGGGCCTA	0.0611
CAATGAGA	-0.279
GACTTTAC	0.0868
ACAATGCT	-0.14
ACCGTTTG	0.0576
ATACCGAT	-0.0381
CCGATCGG	0.33
CTATGTAA	-0.145

Study 2 — target: CCNB2, cyclin fold, Cln2 fusion (human); technique: yeast growth competition, sequencing; medium: yeast; notes: weak parent motif; relative to: not given; reading: higher = stronger binding
Starting sequence: CDKN1C docking peptide (human); TSACRSLFGPVDH
Change	normalised enrichment score
TSACRSLLGPVDH [F8L]	0.125
TSACRALFGPVDH [S6A]	-0.102
TSACRSLFGAVDH [P10A]	0.0177
TSACRSLAGPVDH [F8A]	0.152
ASACRSLFGPVDH [T1A]	0.284
TSACRSLFGPVDA [H13A]	-0.0893
TAACRSLFGPVDH [S2A]	0.0688

Study 3 — technique: RNA Bind-n-Seq; molecule type: RNA; medium: in vitro; concentration: 365 nM; relative to: no-protein control; reading: higher = stronger binding
Target: RNA binding protein fox-1 homolog 2, RRM domain, GST-SBP tag (RBFOX2, Homo sapiens, UniProt O43251-10, residues 100-194)
Notes: natural RNA segment, single round, ends assumed
Shared flanks, not repeated: GGGAGUUCUACAGUCCGACGAUC … UGGAAUUCUCGGGUGCCAA
Target sequence (chain): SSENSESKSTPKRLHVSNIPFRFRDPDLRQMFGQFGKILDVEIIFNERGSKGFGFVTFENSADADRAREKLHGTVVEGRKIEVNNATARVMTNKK
Oligonucleotide	RBNS enrichment (R)
GUGCACCUGUUUGUUCUGCUAGGUUUAGGUUGAGCUCUGGAGUUGUUUGAAGUCUGCGAUGAAAAAUAAUUUUUAAAAGUAUUAAGAACACUAAAAUGGAUUAGAAUUAU	1.29
GUGUGUCCCUCUCCCUAGUCUAAAAAGCAAUUGAAAAGGUCUAUGCAAUAAAGGUUGUUGCUUCCCUUAGGCCUUCACCCCUUCCACCCGACAUCCCUUUCAGUUAUUGU	0.535
UCUCUGGUGGGCAGAGAGGGAUGGGGUCCCUGAGCCAGGCCCCACCCAUCACAGCAUUCCCAGGUCCUGGUACCCAGCCCUCAGUUGUCAUUUGGUUCAGAAUCAGUUCC	0.513
CCACAGUGGGGGGAAAAACAUUCAAGCGAUAUAAAGACACUUGGGCUCUUUGCAGAUGCCUAUACUUCCAACACUACCAUGUCCACAAACCACCCUGGGGGAGGGCCCUU	0.325
UUUCGGUUUUUGGAAAGGGAUCCAUCUCCAGGCAGCCCACCCUGGUGGGGCUUGUUUCCUGAAACCAUGAUGUACUUUUUCAUACAUGAGUCUGUCCAGAGUGCUUGCUA	0.324
GUGCCAUUCACACUGGUCUUUUUCACAUUGUUUUGAGCUUAUUGCAGUAUAUGUUUUGGGAUUUUUCUGUAAAAUGGGUGUAAUUUUCCUAAUACAGGUAUGUAACAACA	0.501
UAGCCGCUGCCACCGUGUAUAAAUCCUGGUGUAUGCUCCUUAUCCUGGACAUGAAUGUAUUGUACACUGACGCGUCCCCACUCCUGUACAGCUGCUUUGUUUCUUUGCAA	0.695
AAAUUCCAAAUAGUUUUAUUUUUCACGCACAAUUUUCCCCAGUUCAAAGGACUGUUACUUUAUUAUUGUAUUCAACACUCAUUGUGUGUAUUACCACAAAUACUACCGAC	0.948
GUAAAUGCUAAUGCAGCCCAGCCCUGCCUGUUGUUUUGGAUCCUUGGUGUCUCAUGUGUACUUCCUGUCUGUCCCCUUUGAUGGCUGUGCGGUCAUCCUAUCGGCGUGGC	0.552
UGGUAUGAAGAAUAUCUGAUAUGCGACUCCUAUGAAAGGGUCGUUUGACCCCACCCCCAACCCCAAUUGGGUCACGAACAACAGGUUGAGAACUGCUGCUCUAAGGCCUU	0.203
AAAGGGUCAAUGGACCUUUCUUUGCACUGUGUGACUUAAUCAACUAUAAAAGCUUACAAUUAGUCUUACAGUUAUGGGAUUGUUAUACUAACCGUGUGAUUGGAACUCCA	0.356
GGUCCAUUUAAAGAGGAAAUUACAUUGUUACUCUUCUUGAUCUCCUCAGGCUAUGUAAGUCUGAAGUACUGUUCUUCUCCACUAAGUAAUACCCAACUAAUUUCCAUUUA	0.283

Study 4 — technique: universal PBM; molecule type: double-stranded DNA, one strand shown; medium: in vitro; concentration: 600 nM; reading: higher = stronger binding
Target: Sal-like protein 4, full length isoform A (SALL4, Homo sapiens, UniProt Q9UJQ4, residues 1-1053)
Chain of UniProt Q9UJQ4 (whole entry, looked up): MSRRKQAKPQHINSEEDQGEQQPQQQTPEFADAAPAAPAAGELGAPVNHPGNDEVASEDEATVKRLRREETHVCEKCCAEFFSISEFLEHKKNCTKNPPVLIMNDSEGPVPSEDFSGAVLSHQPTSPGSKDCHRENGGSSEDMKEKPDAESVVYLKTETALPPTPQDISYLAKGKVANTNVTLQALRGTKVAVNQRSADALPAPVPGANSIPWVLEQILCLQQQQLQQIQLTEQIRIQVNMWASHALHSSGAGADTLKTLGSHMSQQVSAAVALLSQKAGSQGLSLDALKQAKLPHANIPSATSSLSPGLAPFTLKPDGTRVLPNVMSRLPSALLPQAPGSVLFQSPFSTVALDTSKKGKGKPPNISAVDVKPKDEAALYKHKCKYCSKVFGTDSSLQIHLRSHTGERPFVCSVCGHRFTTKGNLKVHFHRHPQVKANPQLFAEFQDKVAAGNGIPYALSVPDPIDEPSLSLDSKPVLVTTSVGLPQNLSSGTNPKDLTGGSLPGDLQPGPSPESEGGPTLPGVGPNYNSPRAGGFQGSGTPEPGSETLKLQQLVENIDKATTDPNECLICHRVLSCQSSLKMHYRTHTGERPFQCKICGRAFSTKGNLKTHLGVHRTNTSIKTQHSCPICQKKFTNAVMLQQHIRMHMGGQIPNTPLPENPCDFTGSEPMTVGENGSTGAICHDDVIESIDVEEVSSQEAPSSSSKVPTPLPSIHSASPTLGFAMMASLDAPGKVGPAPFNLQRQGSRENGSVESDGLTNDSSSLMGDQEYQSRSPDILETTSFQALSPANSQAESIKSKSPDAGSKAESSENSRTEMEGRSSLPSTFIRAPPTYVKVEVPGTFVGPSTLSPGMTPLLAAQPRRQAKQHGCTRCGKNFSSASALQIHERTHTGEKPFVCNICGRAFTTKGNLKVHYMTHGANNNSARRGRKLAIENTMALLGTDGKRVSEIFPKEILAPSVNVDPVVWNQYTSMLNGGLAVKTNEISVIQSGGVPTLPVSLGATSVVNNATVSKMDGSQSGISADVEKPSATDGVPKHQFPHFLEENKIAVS
Notes: 8-mer, flanks averaged, mean of replicates
Oligonucleotide	E-score
CAGCAGAC	-0.0804
ACCGGGAG	-0.22
CAGTTATG	0.291
ATACCATA	0.327
CTCGGACA	-0.0761
GGAGGAAA	-0.116
GGTAGACC	-0.199
ATTAGCTC	0.102
ATGCTACC	0.00686
ATCTGTAA	0.153
TCTGCCAA	0.0193
CCCGTTAG	-0.283
AATGTAAC	0.223
AGCAGATC	0.0263
CACGTGTA	-0.0344
AACTTTTC	0.119
CTTGGTCC	-0.252
CAATTATG	0.358
CTCCCAGA	-0.137
AGACCACG	-0.303
AGACAGAA	0.0313
CCAAAGAC	-0.0775
CTGCCATA	0.0497
CGGAAAAG	-0.117
ATCATCTA	0.203

Study 5 — target: CDC34 UBC core domain (UniProt P49427); technique: yeast two-hybrid; medium: yeast; notes: mostly zero background; relative to: not given; reading: higher = stronger interaction
B1: SYTL4 RING domain (UniProt Q96C24); chain RGSQHYSDRTCARCQESLGRLSPKTNTCRGCNHLVCRDCRIQESNGTWRCKVCAKEIELKKAT
B2: DTX2 RING domain (UniProt Q86UW9); chain EELKVPPDEDCIICMEKLSTASGYSDVTDSKAIGSLAVGHLTKCSHAFHLLCLLAMYCNGNKDGSLQCPSCKTIYGEKTGTQ
B3: RFWD3 RING domain (UniProt Q6PCD5); chain ASMDEEEGDTCTICLEQWTNAGDHRLSALRCGHLFGYRCISTWLKGQVRKCPQCNKKARHSDIVV
B4: DZIP3 RING domain (UniProt Q86Y13); chain PDEEEEEEEPCVICHENLSPENLSVLPCAHKFHAQCIRPWLMQQGTCPTCRLHVLLPEEFP
B5: RNF133 RING domain (UniProt Q8WVZ7); chain DEEINPNGDSCVICFERYKPNDIVRILTCKHFFHKNCIDPWILPHGTCPICKCDILKVLGIQ
B6: ZMIZ2 RING domain (UniProt Q8NF64); chain GTIPGTPGPNGEDGVEQTAIKVSLKCPITFRRIQLPARGHDCRHIQCFDLESYLQLNCERGTWRCPVCNKTALLEGLEVDQYMLGILIYIQNSDYEEITIDPTCSWK
B7: SH3RF1 RING domain (UniProt Q7Z6J0); chain DESALLDLLECPVCLERLDASAKVLPCQHTFCKRCLLGIVGSRNELRCPECRTLVGSGVEEL
Construct (chain): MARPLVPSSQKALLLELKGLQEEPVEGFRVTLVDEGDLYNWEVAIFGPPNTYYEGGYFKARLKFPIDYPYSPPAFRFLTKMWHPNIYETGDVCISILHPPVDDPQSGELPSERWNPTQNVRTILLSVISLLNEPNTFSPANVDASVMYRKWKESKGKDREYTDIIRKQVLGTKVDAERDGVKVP
Sequence	lacZ reporter activity
B1 (SYTL4 RING domain)	0
B2 (DTX2 RING domain)	0
B3 (RFWD3 RING domain)	0
KETIKKTTKPCPRCHVPVEKNGGCMHMKCPQPQCRLEWCWNCGCEWNRVCMG (PRKN RING domain (UniProt O60260))	0
YQNEVDDDLVCHICLQPLLQPLDTPCGHTFCYKCLRNFLQEKDFCPLDRKRLHFKLCKK (LNX2 RING domain (UniProt Q8N448))	0
B4 (DZIP3 RING domain)	0
PEDRESLKSACVVCLSSFKSCVFLECGHVCSCTECYRALPEPKKCPICRQAITRVIPLY (MUL1 RING domain (UniProt Q969V5))	0
B5 (RNF133 RING domain)	0
B6 (ZMIZ2 RING domain)	0
KLRKLKEAMLCMVCCEEEINSTFCPCGHTVCCESCAAQLQSCPVCRSRVEHVQHVY (MYLIP RING domain (UniProt Q8WY64))	0
B7 (SH3RF1 RING domain)	0

Study 6 — target: BATF2, bZIP domain (human); technique: DHFR protein complementation; medium: yeast; relative to: wild-type JUN-FOS pair; reading: higher = stronger binding
Notes: single substitutions, most at no-binding floor
Starting sequence: JUN, bZIP domain (human); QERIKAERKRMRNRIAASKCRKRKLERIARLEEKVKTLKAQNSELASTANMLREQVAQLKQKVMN; partner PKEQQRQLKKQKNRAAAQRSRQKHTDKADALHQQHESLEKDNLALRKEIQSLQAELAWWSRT
Change	binding fitness [natural log]
E44S	-0.484
V35E	-1.36
K36T	-0.472
I28K	-0.556
E32P	-1.39
K34P	-1.3
I28Y	-0.446
Q55E	-0.482
L59P	-1.41
Q55S	-0.67
K36E	-0.228
L45A	-1.38
L52C	-1.51

Study 7 — technique: protein-binding microarray; molecule type: double-stranded DNA, one strand shown; medium: in vitro; concentration: 250 nM; notes: 60-bp whole probe; added: salmon DNA 0.4 mg/ml; relative to: random background probes; reading: higher = stronger binding; shared flanks, not repeated: GCCTAGCAC … GTCTTGATTCGCTTGACGCTGCTG
Target: Interferon regulatory factor 5, full length, phosphomimetic (IRF5, Homo sapiens, UniProt Q13568-2, residues 1-514, K96S/S451D/S453D/S456D/S462D)
Oligonucleotide	log fluorescence [z-score]
TTAGGTTTCGGTTTCGTTTAGTGCTAG	11.4
ATCCCATTAAATTTTAATAAGTGCTAG	0.0853
TTATGTGTAGGTCTTAAATAGTGCTAG	0.0829
GACGGTTTTGGACTGGGGACGTGCTAG	0.125
GACGGTTTCCGTCTCCTGACGTGCTAG	0.901
GACGGTCTCGGTCTCAGGACGTGCTAG	-0.0405
GACAGACTGCTACTGCTGACGTGCTAG	-0.343
GCCGGTTTCCTTTCCCTGACGTGCTAG	1.26
TGCTTTCTCTTTCACTACTCGTGCTAG	8.54
TTAGGACTGCTCCTGCTTTAGTGCTAG	-0.661
TTAGGACTGGATTTTCGGTTAGTGCTA	5.2
TTAGGACTCGACACTGGGTTAGTGCTA	-0.136
TTAGGTTGCCTACTGCTTTAGTGCTAG	-0.416
GACGGTTTCGGGACTGGGAACGTGCTA	5.08
TTAGATTTCGGGACTGGATTTGTGCTA	2.61
GAGGGTATCGGTTTCGGGACGTGCTAG	7.45
TTAGGACCGCTTTTCCTTTAGTGCTAG	-0.203
TTAGATTTCGGGTATCGTTTAGTGCTA	6.17

A few entries again (study 5):
Sequence	lacZ reporter activity
B1 (SYTL4 RING domain)	0
B4 (DZIP3 RING domain)	0
B5 (RNF133 RING domain)	0
KLRKLKEAMLCMVCCEEEINSTFCPCGHTVCCESCAAQLQSCPVCRSRVEHVQHVY (MYLIP RING domain (UniProt Q8WY64))	0
KETIKKTTKPCPRCHVPVEKNGGCMHMKCPQPQCRLEWCWNCGCEWNRVCMG (PRKN RING domain (UniProt O60260))	0
PEDRESLKSACVVCLSSFKSCVFLECGHVCSCTECYRALPEPKKCPICRQAITRVIPLY (MUL1 RING domain (UniProt Q969V5))	0
B7 (SH3RF1 RING domain)	0
